Published values collected from several papers.
Lines come from different studies, so protocols differ. ± marks the error that the study gave.
F fusion protein: Fusion glycoprotein F0, fusion protein (F, Parainfluenza virus 5, UniProt P04849)
gag-pol integrase: Gag-Pol polyprotein, integrase (gag-pol, Human immunodeficiency virus type 1 group M subtype B, UniProt P04585)
Chain of UniProt P22001 (whole entry, looked up): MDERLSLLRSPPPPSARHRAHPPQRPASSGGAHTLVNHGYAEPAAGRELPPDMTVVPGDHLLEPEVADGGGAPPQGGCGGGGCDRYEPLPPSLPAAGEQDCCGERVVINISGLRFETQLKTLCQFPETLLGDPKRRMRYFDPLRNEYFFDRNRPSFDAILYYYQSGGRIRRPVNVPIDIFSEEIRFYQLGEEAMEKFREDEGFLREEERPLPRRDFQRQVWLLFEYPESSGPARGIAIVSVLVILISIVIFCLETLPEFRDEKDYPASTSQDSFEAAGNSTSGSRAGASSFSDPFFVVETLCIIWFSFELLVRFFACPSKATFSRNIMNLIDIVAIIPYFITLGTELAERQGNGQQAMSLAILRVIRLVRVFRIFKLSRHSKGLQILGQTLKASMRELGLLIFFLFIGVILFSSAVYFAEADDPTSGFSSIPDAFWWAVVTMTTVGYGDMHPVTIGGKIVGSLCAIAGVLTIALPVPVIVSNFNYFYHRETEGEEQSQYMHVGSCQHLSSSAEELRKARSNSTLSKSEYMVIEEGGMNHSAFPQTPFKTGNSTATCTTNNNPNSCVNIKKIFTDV

| Compound | target | test | test system | conditions | IC50 |
| --- | --- | --- | --- | --- | --- |
| CC[C@H](C)[C@H](NC(=O)[C@H](C)NC(=O)[C@H](CO)NC(=O)[C@H](CC(C)C)NC(=O)[C@H](Cc1ccc(O)cc1)NC(=O)[C@@H](NC(=O)[C@H](CC(=O)O)NC(=O)[C@H](CO)NC(=O)[C@H](CCC(N)=O)NC(=O)[C@H](C)NC(=O)[C@H](CC(C)C)NC(=O)[C@H](Cc1c[nH]cn1)NC(=O)[C@H](CCC(N)=O)NC(=O)[C@H](CC(C)C)NC(=O)[C@H](C)NC(=O)[C@H](CC(=O)O)NC(=O)[C@H](CO)NC(=O)[C@H](CC(C)C)NC(=O)[C@H](CO)NC(=O)[C@H](CCCCN)NC(=O)[C@H](CC(N)=O)NC(=O)[C@@H](NC(=O)[C@H](C)NC(=O)[C@H](C)NC(=O)[C@H](CC(C)C)NC(=O)[C@H](CC(N)=O)NC(=O)[C@H](CCC(N)=O)NC(=O)[C@H](CO)NC(=O)[C@H](C)NC(=O)[C@H](CC(=O)O)NC(=O)[C@H](CC(C)C)NC(=O)[C@@H]1CCCN1C(=O)[C@H](CC(=O)O)NC(=O)[C@@H](NC(=O)[C@H](CO)NC(=O)[C@H](CC(C)C)NC(=O)[C@@H](NC(=O)[C@H](CCC(N)=O)NC(=O)[C@H](CO)NC(=O)[C@H](CO)NC(=O)[C@H](CCC(=O)O)NC(=O)[C@H](CC(C)C)NC(=O)[C@@H](N)CCCCN)[C@@H](C)CC)[C@@H](C)CC)C(C)C)[C@@H](C)O)C(=O)O | F fusion protein | cell-cell fusion, inhibitor, luciferase reporter | Vero plus BSR-T7 cells | 6 h, 37 °C, with: SV5 F and HN | 115 ± 7 nM |
| C=CCCC[C@](C)(NC(=O)CNC(=O)[C@H](C)NC(=O)[C@H](CC(C)C)NC(=O)[C@](C)(CCCC=C)NC(=O)[C@H](CC(C)C)NC(=O)[C@H](CC(C)C)NC(=O)[C@H](Cc1ccccc1)NC(=O)[C@H](Cc1ccc(O)cc1)NC(=O)[C@H](C)NC(=O)[C@@H](N)[C@@H](C)O)C(=O)N[C@@H](Cc1c[nH]c2ccccc12)C(N)=O | gag-pol integrase | integrase 3'-processing, inhibitor | – | – | > 100000 nM |
| CC[C@H](C)[C@H](N)C(=O)N[C@@H](CC(N)=O)C(=O)N[C@@H](CC(N)=O)C(=O)N[C@H](C(=O)N1C[C@@H](n2cc([C]34[CH]5[CH]6[CH]7[CH]3[Fe]6754389%10[CH]4[CH]3[CH]8[CH]9[CH]4%10)nn2)C[C@H]1C(=O)N[C@@H](Cc1ccc(O)cc1)C(N)=O)[C@@H](C)CC (stereo partly shown) | Envelope glycoprotein gp160, gp120 (env, Human immunodeficiency virus type 1 group M subtype B, UniProt P35961, W111A) | binding to soluble CD4, inhibitor, competition SPR | – | gp120 W112A mutant | > 50000 nM |
| CC[C@H](C)[C@H](NC(=O)[C@H](C)NC(=O)[C@H](CO)NC(=O)[C@H](CC(C)C)NC(=O)[C@H](Cc1ccc(O)cc1)NC(=O)[C@@H](NC(=O)[C@H](CC(=O)O)NC(=O)[C@H](CO)NC(=O)[C@H](CCC(N)=O)NC(=O)[C@H](C)NC(=O)[C@H](CC(C)C)NC(=O)[C@H](Cc1c[nH]cn1)NC(=O)[C@H](CCC(N)=O)NC(=O)[C@H](CC(C)C)NC(=O)[C@H](C)NC(=O)[C@H](CC(=O)O)NC(=O)[C@H](CO)NC(=O)[C@H](CC(C)C)NC(=O)[C@H](CO)NC(=O)[C@H](CCCCN)NC(=O)[C@H](CC(N)=O)NC(=O)[C@@H](NC(=O)[C@H](C)NC(=O)[C@H](C)NC(=O)[C@H](CC(C)C)NC(=O)[C@H](CC(N)=O)NC(=O)[C@H](CCC(N)=O)NC(=O)[C@H](CO)NC(=O)[C@@H](NC(=O)[C@H](CC(=O)O)NC(=O)[C@@H](NC(=O)[C@@H]1CCCN1C(=O)[C@H](CC(=O)O)NC(=O)[C@@H](NC(=O)[C@H](CO)NC(=O)[C@H](CC(C)C)NC(=O)[C@@H](NC(=O)[C@H](CCC(N)=O)NC(=O)[C@H](CO)NC(=O)[C@H](CO)NC(=O)[C@H](CCC(=O)O)NC(=O)[C@H](CC(C)C)NC(=O)[C@@H](N)CCCCN)[C@@H](C)CC)[C@@H](C)CC)C(C)C)[C@@H](C)CC)C(C)C)[C@@H](C)O)C(=O)O | F fusion protein | cell-cell fusion, inhibitor, luciferase reporter | Vero plus BSR-T7 cells | 6 h, 37 °C, with: SV5 F and HN | 83 ± 11 nM |
| CC[C@@H](C)[C@H]1NC(=O)[C@H](NC(=O)[C@@H](CO)NC(=O)[C@H](N)CCCNC(=N)N)CSSC[C@H](C(=O)O)NC(=O)[C@@H]([C@H](C)O)NC(=O)CNC(=O)[C@H]2CSSC[C@H]3NC(=O)[C@@H](CCC(N)=O)NC(=O)[C@@H](Cc4ccccc4)NC(=O)[C@@H](C)NC(=O)[C@@H]([C@H](C)O)NC(=O)[C@@H](CSSC[C@@H](NC(=O)[C@@H](Cc4ccccc4)NC(=O)[C@@H](CO)NC(=O)[C@@H](CC(C)C)NC(=O)[C@@H](CCCNC(=N)N)NC(=O)[C@@H](Cc4ccc(O)cc4)NC(=O)[C@@H](CCCCN)NC(=O)[C@@H](CCSC)NC(=O)[C@@H](CO)NC(=O)[C@@H](Cc4c[nH]cn4)NC(=O)[C@@H](CCCCN)NC3=O)C(=O)N[C@H](CCCNC(=N)N)C(=O)N[C@H](CCCCN)C(=O)N[C@H]([C@H](C)O)C(=O)N2)NC(=O)[C@@H](CCCNC(=N)N)NC(=O)[C@@H](CO)NC(=O)[C@@H](CCCCN)NC(=O)[C@H]2CCCN2C(=O)[C@@H]([C@H](C)CC)NC(=O)[C@@H]([C@H](C)O)NC(=O)[C@@H](CC(=O)O)NC1=O | Potassium voltage-gated channel subfamily A member 3 (KCNA3, Homo sapiens, UniProt P22001) | ion current, blocker, cut-open oocyte voltage clamp | Xenopus laevis oocytes expressing hKv1.3 | preparation possibly contaminated | 450 ± 110 nM |
| C[C@@H]1NC(=O)[C@@H]2CSC(=N2)c2cc3cc(n2)C2=N[C@@H](CS2)C(=O)NCC[C@@H](C(N)=O)NC(=O)[C@H](C)NC(=O)[C@H](CCCCN)NC(=O)[C@H](Cc2ccccc2)NC(=O)[C@H](CCCCN)NC(=O)[C@H](C)NC(=O)[C@H](CS3)NC(=O)[C@H](C)NC(=O)[C@H](CCCCN)NC(=O)[C@H](CCCNC(=N)N)NC(=O)[C@H](CCCCN)NC1=O | Genome polyprotein, NS2B-NS3 protease (ZIKV, UniProt A0A024B7W1) | protease activity, inhibitor, FRET | Zika virus | – | 260 nM |
| CC[C@H](C)[C@H](NC(=O)[C@H](C)NC(=O)[C@H](CCC(=O)O)NC(C)=O)C(=O)N[C@H](C(=O)N[C@@H](CCCNC(=N)N)C(=O)N[C@H](C(=O)N[C@H]1CCCC=CCCC[C@@H](C(=O)N[C@@H](Cc2ccccc2)C(=O)N[C@H](C(=O)N[C@@H](Cc2c[nH]cn2)C(=O)N[C@@H](Cc2ccccc2)C(=O)N[C@@H](CCCNC(=N)N)C(=O)N[C@H](C(=O)NCC(N)=O)[C@@H](C)CC)[C@@H](C)CC)NC(=O)[C@H](CC(C)C)NC(=O)[C@H](CCC(N)=O)NC(=O)[C@H](CCC(N)=O)NC1=O)[C@@H](C)CC)[C@@H](C)CC | gag-pol integrase | 3′-end processing, inhibitor | HIV-1 | – | 4900 ± 600 nM |
| CSCC[C@H](NC(=O)[C@H](CCCNC(=N)N)NC(=O)[C@H](CCCNC(=N)N)NC(=O)[C@@H](NC(=O)[C@@H](N)CCC(=O)O)[C@@H](C)O)C(=O)N[C@@H](CC(C)C)C(=O)N[C@@H](Cc1c[nH]cn1)C(=O)N[C@@H](CCCNC(=N)N)C(=O)N[C@@H](C)C(=O)N[C@@H](Cc1ccccc1)C(=O)N[C@@H](CC(=O)O)C(=O)N[C@H](C(=O)N[C@@H](CC(C)C)C(=O)N[C@@H](C)C(=O)O)[C@@H](C)O | DNA polymerase processivity factor, with UL42 processivity factor (Human herpesvirus 1, UniProt P10226) | processive DNA synthesis, inhibitor | – | 30 min, 37 °C | > 200000 nM |
| C=CCCC[C@](C)(N)C(=O)N[C@@H](C)C(=O)N[C@@H](Cc1ccc(O)cc1)C(=O)N[C@@H](Cc1ccccc1)C(=O)N[C@@](C)(CCCC=C)C(=O)N[C@@H](CC(C)C)C(=O)N[C@@H](CCCCN)C(=O)N[C@@H](CC(C)C)C(=O)N[C@@H](C)C(=O)NCC(=O)N[C@@H](CCCNC(=N)N)C(=O)N[C@@H](Cc1c[nH]c2ccccc12)C(N)=O | gag-pol integrase | integrase strand transfer, inhibitor | – | – | 15000 ± 5000 nM |
| CC[C@H](C)[C@H](NC(=O)[C@H](CCCNC(=N)N)NC(=O)[C@H](Cc1ccccc1)NC(=O)[C@H](Cc1c[nH]cn1)NC(=O)[C@@H](NC(=O)[C@H](Cc1ccccc1)NC(=O)[C@H](CC(C)C)NC(=O)[C@H](CC(C)C)NC(=O)[C@H](CCC(N)=O)NC(=O)[C@H](CCC(N)=O)NC(=O)[C@H](CC(C)C)NC(=O)[C@@H]1CCCC=CCCC[C@H](NC(=O)[C@H](CCC(=O)O)NC(C)=O)C(=O)N[C@@H]([C@@H](C)CC)C(=O)N[C@@H]([C@@H](C)CC)C(=O)N[C@@H](CCCNC(=N)N)C(=O)N1)[C@@H](C)CC)C(=O)NCC(N)=O | gag-pol integrase | strand transfer, inhibitor | HIV-1 | – | 1100 ± 80 nM |

Some of these lines once more:
| Compound | target | test | test system | conditions | IC50 |
| --- | --- | --- | --- | --- | --- |
| C=CCCC[C@](C)(N)C(=O)N[C@@H](C)C(=O)N[C@@H](Cc1ccc(O)cc1)C(=O)N[C@@H](Cc1ccccc1)C(=O)N[C@@](C)(CCCC=C)C(=O)N[C@@H](CC(C)C)C(=O)N[C@@H](CCCCN)C(=O)N[C@@H](CC(C)C)C(=O)N[C@@H](C)C(=O)NCC(=O)N[C@@H](CCCNC(=N)N)C(=O)N[C@@H](Cc1c[nH]c2ccccc12)C(N)=O | gag-pol integrase | integrase strand transfer, inhibitor | – | – | 15000 ± 5000 nM |
